Assay results from different studies.
“And” joins repeats or separate records; there may be more than shown. ± marks the error that the study gave.
Nuclear receptor subfamily 2 group C member 2 ligand-binding domain: Nuclear receptor subfamily 2 group C member 2, ligand-binding domain (Homo sapiens, UniProt P49116)
UniProt P49116, sequence (whole entry, looked up): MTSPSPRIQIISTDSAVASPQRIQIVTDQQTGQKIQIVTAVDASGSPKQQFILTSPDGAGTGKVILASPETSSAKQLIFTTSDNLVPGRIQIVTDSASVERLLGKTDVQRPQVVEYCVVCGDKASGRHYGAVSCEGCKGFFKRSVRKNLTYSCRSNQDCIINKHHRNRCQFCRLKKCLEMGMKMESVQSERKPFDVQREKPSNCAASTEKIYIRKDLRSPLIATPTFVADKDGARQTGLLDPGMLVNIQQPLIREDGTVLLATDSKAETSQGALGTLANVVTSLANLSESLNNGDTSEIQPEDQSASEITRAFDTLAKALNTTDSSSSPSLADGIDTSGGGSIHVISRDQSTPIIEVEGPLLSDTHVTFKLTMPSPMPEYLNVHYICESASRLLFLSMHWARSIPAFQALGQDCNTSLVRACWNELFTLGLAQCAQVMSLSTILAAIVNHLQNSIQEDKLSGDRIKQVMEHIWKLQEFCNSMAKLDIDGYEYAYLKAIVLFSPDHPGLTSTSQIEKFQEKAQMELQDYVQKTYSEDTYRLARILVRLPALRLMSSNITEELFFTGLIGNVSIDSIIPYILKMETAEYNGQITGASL

SMILES | tested on | assay | system | setting | scale | measurement | result
COc1cccc2c1C(=O)c1c(O)c3c(c(O)c1C2=O)C[C@@](O)(C(=O)CO)C[C@@H]3O[C@H]1C[C@H](N)[C@H](O)[C@H](C)O1 | NCI-H292 | WST-1 |  | concentration not given, 72 h, highest tested concentration |  | maximal cytotoxicity | 92.2%
Cc1n[nH]c2nc(-c3ccc(Cl)cc3)c3c(NC(=O)c4ccccc4)nnc-3n12 | 786-0 | NCI60 SRB |  | 10 µM |  | growth percent | 103%
CN1C(C(=O)Nc2ccccn2)=C(O)c2sc(Cl)cc2S1(=O)=O | COS-7 |  |  | 100 µM, 24 h, 0.1% DMSO, unit not given | relative to: control | apoptosis | 0.67 ± 0.11
Cc1nn(-c2nc3ccc(Cl)c(Cl)c3[nH]2)c(O)c1C1OC(=O)c2ccccc21 (centres unmarked) | RAW-ISG | western blot |  | 10 µM, added: HT-DNA | relative to: vehicle | phospho-IRF3/IRF3 ratio | 0.455 and 0.471 and 0.731
C=C1C(=O)O[C@H]2[C@H]1CC/C(C)=C/CC[C@@]1(C)O[C@@H]21 | iPSC-derived cardiomyocytes | concentration-response fit |  | concentration not given | relative to: vehicle | fitted bottom MyBP-C level | 0%
Oc1cc(O)cc(/C=C/c2ccc(O)c(O)c2)c1 | OCI-Ly1 |  |  | 0.1 µM, 120 h |  | viability | 172%
COc1cc2ncnc(Nc3ccc(Oc4ccccc4)cc3C)c2cc1OC.O=C(O)C(F)(F)F | LoVo (KRAS G13D) | cell viability, resazurin |  | 1 µM, 72 h, added: trametinib 0 nM | relative to: DMSO | average fractional effect | 1.42%
C[C@H](Nc1ccc2c(c1)OCCn1cc(N3C(=O)OC[C@H]3C(F)F)nc1-2)C(N)=O | HCC1954 | resazurin growth rate inhibition |  | 72 h |  | GR50 | 12.7 nM
Cc1cc(O)c2c(c1)C(=O)c1cc(O)cc(O)c1C2=O | HepaRG co-cultured with HK-2 | MTT |  | 16.67 µM, 24 h | relative to: untreated control | cell viability | 105 ± 17.9%
CN1CCN(c2ccc3[nH]c(-c4ccc5[nH]c(-c6ccc(C(F)(F)F)cc6)nc5c4)nc3c2)CC1 | 786-0 | cell growth, NCI-60 SRB |  | 10 µM, 48 h |  | growth percent | 69.6%
Nc1cccc2c1C(=O)N(C1CCC(=O)NC1=O)C2=O (centres unmarked) | RPMI-8226 | flow cytometry, item: CD147 |  | concentration not given | relative to: comparator compound alone | surface marker level | 163%
CCCCCNC(=O)N1CCC(CN(Cc2ccc(Cl)cc2)Cc2ccc([N+](=O)[O-])s2)C1 (centres unmarked) | HepG2, control siRNA | transcription, qPCR, item: BMAL1 mRNA |  | concentration not given |  | inhibition | 39%
CC(C)(c1ccc(O)cc1)c1ccc(O)cc1 | HepG2 spheroids | Hoechst flow cytometry |  | 40 µM, 24 h |  | G1 phase cells | 72 ± 1.83%
CC(C)NCC(O)c1ccc(O)c(O)c1 (centres unmarked) | mouse ventricular cardiomyocytes |  |  | dose not given, 0.367 s |  | sarcomere length | 1.8 µm
c1ccc2cc(Cn3cc[n+](Cc4ccc5ccccc5c4)c3)ccc2c1 | NCI60 NSCLC cell lines | cell growth |  |  |  | GI50 | ≤ 8400 nM
C=CCNC1=C2C[C@@H](C)C[C@H](OC)[C@H](O)[C@@H](C)/C=C(\C)[C@H](OC(N)=O)[C@@H](OC)/C=C\C=C(/C)C(=O)NC(=CC1=O)C2=O | human cells | plate-normalised |  | concentration not given, hit retest | relative to: vehicle controls, SDs below control | MyBP-C level change | 5.71 SD
O=C(O)C(Cc1c[nH]c2ccccc12)N1C(=O)c2ccccc2C1=O (centres unmarked) | OCI-Ly1 |  |  | 1 µM, 120 h |  | viability | 154%
CCCNC(C)C(=O)Nc1ccccc1C (centres unmarked) | Nuclear receptor subfamily 2 group C member 2 ligand-binding domain | SPR imaging |  |  |  | Kd | 1.36 nM
COc1cc(/C=C/C(=O)N2CCC=CC2=O)cc(OC)c1OC | MDA-MB-468 | qRT-PCR, item: NQO1 |  | 30 µM, 6 h | relative to: time zero | mRNA level | 127 ± 19.5%
Nc1nc(OCc2cc(Br)cs2)c2[nH]cnc2n1 | OCI-Ly1 |  |  | 0.1 µM, 120 h |  | viability | 101%
Cn1cc(-c2ccc(-c3cncc(Cl)c3N3CCC4(CCNC4=O)CC3)cc2)cn1 | COLO 205 | gene expression, microarray, item: TNRC18 mRNA |  | concentration not given, 2 h | relative to: untreated cells | log2 fold change | 2
COc1cnc2cccc(N3CCc4c(cc(Cn5ccnc5C)cc4-c4cn(C)nc4C(F)(F)F)C3=O)c2c1 | SNU878 | cell growth, inhibitor |  | 120 h |  | EC50 | > 30000 nM
[Cl-].[Cl-].[Ru+2].c1cnc2c(c1)ccc1cccnc12.c1cnc2c(c1)ccc1cccnc12.c1csc(-c2ccc(-c3ccc(-c4nc5c6cccnc6c6ncccc6c5[nH]4)s3)s2)c1 | SK-MEL-28 |  |  | normoxia, added: visible light 100 J/cm2 |  | EC50 | 57 nM
CCCC(=O)O[C@H]1C[C@H]2C[C@@H](O[C@@H]3O[C@@H](C)[C@@H](O)[C@@H](O)[C@H]3OC)C[C@@H](C[C@@H](C)/C=C/C=C\C[C@@H]3O[C@@H](C[C@@H]3C)[C@@H](O)C[C@H]3C[C@@]1(O)C(=O)O3)O2 | NCI-H292 | Seahorse XF24 |  | 1 µM | relative to: control | oxygen consumption rate | 25 to 30%

SMILES | tested on | assay | system | setting | scale | measurement | result
Cc1nc2ccc(NC(=O)Cc3ccc(OC(F)(F)F)cc3)cc2[nH]1 | sample A patient iPSC-derived NPCs | MTS |  | 10 µM, 24 h | relative to: vehicle | viability | 104 ± 1.05%
CCc1cnc(N2CCC(c3nc(COc4ccc(-n5cnnn5)cc4)cs3)CC2)nc1 | HEK-293T | RNA-seq GSEA, item: Hallmark apical surface |  | concentration not given | direction not given | normalized enrichment score | -0.801
CCN(CCO)CCCC(C)Nc1ccnc2cc(Cl)ccc12 (centres unmarked) | human PBMC | qRT-PCR, item: RSAD2 mRNA |  | 1000 nM, added: ssRNA |  | inhibition | 17 ± 27%
CC(=O)Nc1cccc(-n2c(=O)n(C3CC3)c(=O)c3c(Nc4ccc(I)cc4F)n(C)c(=O)c(C)c32)c1 | COLO 205 (BRAF V600E) |  |  | 1.56 nM | relative to: DMSO | fractional effect | 82%
COc1cc([C@@H]2c3cc4c(cc3[C@@H](O[C@@H]3O[C@@H]5CO[C@@H](C)O[C@H]5[C@H](O)[C@H]3O)[C@H]3COC(=O)[C@H]23)OCO4)cc(OC)c1O | OCI-Ly1 |  |  | 0.1 µM, 120 h |  | viability | 159%
CCn1cc(-c2cc(Cn3ccnc3)cc3c2CCN([C@H](c2cc(OC)ccn2)C2CC2)C3=O)c(C(F)(F)F)n1 | RERF-LC-Ad2 | cell growth, inhibitor |  | 120 h |  | EC50 | 11100 nM
Cc1cc(/N=N/c2ccc(S(=O)(=O)Nc3ccccn3)cc2)c(N)cc1O | OCI-Ly1 |  |  | 0.1 µM, 120 h |  | viability | 183%
C[C@H]1[C@H](C)CC[C@]2(C)CC[C@]3(C)C(=CC(=O)[C@@H]4[C@@]5(C)CC[C@@H](O)[C@](C)(C(=O)NCc6cn(-c7cccc(Br)c7)nn6)[C@@H]5CC[C@]43C)[C@H]12 | human PBMCs | flow cytometry |  | 5 µM | relative to: CD8+ T cells | TIGIT positive cells | 9.83%
CC1(C)CCC(CN2CCN(c3ccc(C(=O)NS(=O)(=O)c4ccc(NCC5CCOCC5)c([N+](=O)[O-])c4)c(Oc4cnc5[nH]ccc5c4)c3)CC2)=C(c2ccc(Cl)cc2)C1 | THP-1 | annexin V/PI flow cytometry, item: annexin V+/PI- |  | 0.4 µM, 24 h |  | early apoptotic cells | 3.6%
O=C(/C=C/C=C/C=C/C1CCCCC1)NC1=C[C@@](O)(/C=C/C=C/C=C/C(=O)NC2=C(O)CCC2=O)[C@@H]2O[C@@H]2C1=O | WM266-4 | CellTiter-Glo |  | 78 h |  | GI50 | 20200 nM
COc1cc2c(c(O)c1OC)C(=O)c1c(cc(C)c(O[C@@H]3O[C@H](CO)[C@@H](O)[C@H](O)[C@H]3O)c1OC)C2=O | HepaRG co-cultured with HK-2 | MTT |  | 16.67 µM, 24 h | relative to: untreated control | cell viability | 101 ± 10.7%
CCn1c(=O)/c(=C2\Sc3cc(Cl)ccc3N2C)s/c1=C\c1scc[n+]1Cc1ccccc1.[Cl-] | iPSC-derived cardiomyocytes | concentration-response fit |  | concentration not given | relative to: vehicle | fitted bottom MyBP-C level | 0%
O=C(COc1cccc2c1C(=O)N(C1CCC(=O)NC1=O)C2=O)NCCOCCOCCNS(=O)(=O)Nc1cccc(-c2cn3cc(C(=O)NC4CCC4)ccc3n2)c1 (centres unmarked) | MV4-11 | TMT proteomics, item: RPLP2 | whole proteome | 10 µM, 16 h | relative to: DMSO | log2 fold change | -0.081
C=C1C(=O)OC2CC1C(OC(C)=O)C/C(C)=C/CC/C(C)=C\CCC2(C)O (centres unmarked) | iPSC-derived cardiomyocytes | concentration-response fit |  | concentration not given | relative to: vehicle | fitted top MyBP-C level | 101%
Cc1cccc(-c2[nH]c(CNc3ccccc3F)nc2-c2ccc3ncnn3c2)n1 | pomalidomide-resistant MM1.S cells | XTT |  | 3 µM | higher = more viable cells | XTT absorbance | 0.7 E-1 and 1.4 E-1 and 1.1 E-1
O=C(CCCN1C(=O)c2cccc3cccc(c23)C1=O)NO | OCI-Ly1 |  |  | 1 µM, 120 h |  | viability | 74.5%
COc1ccc([C@H]2CNC(=O)C2)cc1OC1CCCC1 | Nuclear receptor subfamily 2 group C member 2 ligand-binding domain | SPR imaging |  |  |  | Kd | 0.0165 nM
CCn1cc(-c2cc(Cn3ccoc3=N)cc3c2CCN([C@@H](C)c2cc(OC)ccn2)C3=O)c(C(F)(F)F)n1 | SNU308 | cell growth |  | 120 h |  | EC50 | 18.6 nM
CCCC(=O)O | OCI-Ly1 |  |  | 0.1 µM, 120 h |  | viability | 185%
CCN(CCO)CCCC(C)Nc1ccnc2cc(Cl)ccc12 (centres unmarked) | hiPSC-derived ventricular cardiomyocytes | perforated patch voltage clamp |  | 10 µM, 3-5 min, unit not given | relative to: pre-drug control | steady funny current | 0.98 and 1 and 0.94 and 1.14 and 0.91
CCCCCCCCOC(=O)C(=O)CCC(=O)O | OCI-Ly1 |  |  | 0.1 µM, 120 h |  | viability | 124%
Cc1ncsc1-c1ccc([C@H](C)NC(=O)[C@H]2C[C@H](O)CN2C(=O)[C@@H](NC(=O)CCCCCCCCCNC(=O)c2ccc3c(c2)[C@H](NC(=O)c2cc(-c4ccc(C(=O)N(C)C)c(O)c4)on2)CC3)C(C)(C)C)cc1 | MV4-11 | TMT proteomics, item: SPTY2D1 protein |  | concentration not given, 2 h | relative to: DMSO | log2 fold change | -0.342
C=CC1=C(C)c2cc3[n-]c(cc4nc(cc5[n-]c(cc1n2)c(C)c5C=C)C(C)=C4CCC(=O)O)c(CCC(=O)O)c3C.[Zn+2] | SH-SY5Y | RNA-seq, item: VCL mRNA |  | 5 µM, 5 h | relative to: untreated cells | fold change | 1.62

For quick reference, copied from above:
SMILES | tested on | assay | system | setting | scale | measurement | result
Nc1cccc2c1C(=O)N(C1CCC(=O)NC1=O)C2=O (centres unmarked) | RPMI-8226 | flow cytometry, item: CD147 |  | concentration not given | relative to: comparator compound alone | surface marker level | 163%
CCCCCNC(=O)N1CCC(CN(Cc2ccc(Cl)cc2)Cc2ccc([N+](=O)[O-])s2)C1 (centres unmarked) | HepG2, control siRNA | transcription, qPCR, item: BMAL1 mRNA |  | concentration not given |  | inhibition | 39%
CC(C)(c1ccc(O)cc1)c1ccc(O)cc1 | HepG2 spheroids | Hoechst flow cytometry |  | 40 µM, 24 h |  | G1 phase cells | 72 ± 1.83%
CC(C)NCC(O)c1ccc(O)c(O)c1 (centres unmarked) | mouse ventricular cardiomyocytes |  |  | dose not given, 0.367 s |  | sarcomere length | 1.8 µm
c1ccc2cc(Cn3cc[n+](Cc4ccc5ccccc5c4)c3)ccc2c1 | NCI60 NSCLC cell lines | cell growth |  |  |  | GI50 | ≤ 8400 nM
